Measured values collected from several papers.
Every numbered part comes from another study and shows a few of its results, in no order.

Study 1
Target: Sal-like protein 4, full length isoform A (SALL4, Homo sapiens, UniProt Q9UJQ4, residues 1-1053)
Chain of UniProt Q9UJQ4 (whole entry, looked up): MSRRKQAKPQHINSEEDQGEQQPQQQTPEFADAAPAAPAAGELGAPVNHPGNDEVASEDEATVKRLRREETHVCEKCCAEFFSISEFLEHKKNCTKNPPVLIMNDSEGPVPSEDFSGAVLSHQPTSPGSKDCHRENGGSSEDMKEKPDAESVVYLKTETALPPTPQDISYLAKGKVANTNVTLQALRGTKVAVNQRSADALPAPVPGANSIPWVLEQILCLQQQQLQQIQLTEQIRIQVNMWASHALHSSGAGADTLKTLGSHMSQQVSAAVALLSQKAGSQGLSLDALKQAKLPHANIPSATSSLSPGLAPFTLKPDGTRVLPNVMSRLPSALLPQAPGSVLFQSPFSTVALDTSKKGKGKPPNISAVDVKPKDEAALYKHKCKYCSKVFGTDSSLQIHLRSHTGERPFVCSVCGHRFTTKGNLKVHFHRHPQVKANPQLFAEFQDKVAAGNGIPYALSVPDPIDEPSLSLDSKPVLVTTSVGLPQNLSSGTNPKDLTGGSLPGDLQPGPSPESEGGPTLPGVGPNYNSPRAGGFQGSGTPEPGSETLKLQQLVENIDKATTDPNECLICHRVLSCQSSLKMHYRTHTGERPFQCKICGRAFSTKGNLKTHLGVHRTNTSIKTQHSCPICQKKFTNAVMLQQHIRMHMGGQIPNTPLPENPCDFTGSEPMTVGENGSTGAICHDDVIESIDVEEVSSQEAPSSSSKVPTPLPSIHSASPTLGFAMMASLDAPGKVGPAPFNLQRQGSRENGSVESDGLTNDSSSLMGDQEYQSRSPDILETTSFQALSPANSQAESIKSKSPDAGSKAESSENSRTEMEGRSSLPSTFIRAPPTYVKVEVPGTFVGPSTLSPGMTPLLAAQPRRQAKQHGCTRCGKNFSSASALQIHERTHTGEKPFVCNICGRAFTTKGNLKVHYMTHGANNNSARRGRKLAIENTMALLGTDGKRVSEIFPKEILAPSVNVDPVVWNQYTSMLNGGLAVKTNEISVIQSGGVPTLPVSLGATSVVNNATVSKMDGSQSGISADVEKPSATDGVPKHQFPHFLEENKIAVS
Method: universal PBM
Molecule type: double-stranded DNA, one strand shown
Sample: in vitro
Tested at: 600 nM
Setting: 8-mer, flanks averaged, mean of replicates
Direction: higher = stronger binding
| Strand | E-score |
| --- | --- |
| CCTAAAGG | -0.0913 |
| AATAACAC | 0.188 |
| ACGTCATG | 0.0617 |
| GAAAACGA | -0.0163 |
| TCCAATCA | -0.0265 |

Study 2
Target: RNA binding protein fox-1 homolog 2, RRM domain, GST-SBP tag (RBFOX2, Homo sapiens, UniProt O43251-10, residues 100-194)
Method: RNA Bind-n-Seq
Molecule type: RNA
Sample: in vitro
Tested at: 365 nM
Setting: natural RNA segment, single round, ends assumed
Relative to: no-protein control
Direction: higher = stronger binding
Target sequence (chain): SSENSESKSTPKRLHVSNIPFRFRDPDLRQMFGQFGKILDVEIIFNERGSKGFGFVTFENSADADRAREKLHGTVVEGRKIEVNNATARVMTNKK
| Strand | RBNS enrichment (R) |
| --- | --- |
| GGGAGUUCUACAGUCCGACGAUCGCAGGCUCCAGCAGCUCCCUUCUUCCUUCCCUCUGUGCCCGUGGCGUCUGCUUCCCAUCCUGGGAGUGUGUAUAUAUGUAGCAUAUCAUGGGGGACUGGGAAGUUGGGAGUGGAAUUCUCGGGUGCCAA | 0.207 |
| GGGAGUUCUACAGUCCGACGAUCCAUGCUGUAAGCUCAUAGAAGUCACUGUAACUGUAGUGUGUCUGCUGUUACCUAGAGGGUCUCACCUCCCCACUCUUCACAGCAAACCUGAGCAGCGCGUCCUAAGCACCUGGAAUUCUCGGGUGCCAA | 0.264 |
| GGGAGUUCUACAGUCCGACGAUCUGUCAUUAGCUCCAAGUGUAAAUUUGGGUCAAGGAGACAGAAUAAUAAUGGGAAUCUCGGAGUUCGACACCAUAGUGACGUUCAGCGUCCUCUGAAUUGUGCUACAUCAGUGGAAUUCUCGGGUGCCAA | 0.181 |
| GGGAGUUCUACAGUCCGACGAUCCCCAUGAAAGAAUGUGUUUCAGUAUCAGUGCUUUUUUGGUACUUUAACAAGUAUUGUAGGCACGGUGGAUUUUUUUGAAAUACCCAUGUGUCCAAUAGCAAGUUAAGGAAUGGAAUUCUCGGGUGCCAA | 0.888 |
| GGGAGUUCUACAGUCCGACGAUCAUGUGGCUGAACAAGCAGGAAGAGUCCUGCUGUGUAAAUUGUAAAUGUCGAGUGCACUUGAUGAAGAAUACCACUCCUUAAAAUGUGUGGAAGAGAGAGAGAGAGACUGAUGGAAUUCUCGGGUGCCAA | 1.69 |

Study 3
Target: Interferon regulatory factor 5, full length, phosphomimetic (IRF5, Homo sapiens, UniProt Q13568-2, residues 1-514, K96S/S451D/S453D/S456D/S462D)
Method: protein-binding microarray
Molecule type: double-stranded DNA, one strand shown
Sample: in vitro
Tested at: 250 nM
Setting: 60-bp whole probe
With: salmon DNA 0.4 mg/ml
Relative to: random background probes
Direction: higher = stronger binding
Shared flanks, not repeated: GCCTAGCAC … GTCTTGATTCGCTTGACGCTGCTG
| Strand | log fluorescence [z-score] |
| --- | --- |
| TCATTTCTCTTTCCTTCACTGTGCTAG | 2.61 |
| GGCGATTTCAGTTCCGAGACGTGCTAG | 1.24 |
| GACAGTTTCCTTCTCCTGACGTGCTAG | 1.66 |
| TTAGGTATCGGGACTGGATTAGTGCTA | 1.85 |
| GTGTGCATCTATCTTAAATAGTGCTAG | -0.0858 |

Single results of other studies
| Substance | target | test | test system | conditions | scale | quantity | value |
| --- | --- | --- | --- | --- | --- | --- | --- |
| PhoQ, residues 284 288 289 292 302 303 ASVMEA | PhoP, residues 12 14 15 18 19 LFHKL (Escherichia coli, UniProt P23836) | Sort-seq, measured: YFP reporter | E. coli | PhoQ-PhoP variant library, with: 10 µM Mg2+ | relative to: high Mg2+ state, higher = stronger signaling | fold induction | 22.4 |
